Published values collected from several papers.
Several values in a cell are separate wells, animals, samples, runs or records. Numbers after ± are the reported error.

COc1cc(/C=C/C(=O)CC(=O)/C=C/c2ccc(O)c(O)c2)ccc1O  maximum non-toxic concentration (MDCK; MTT; 24 h): 20 µM
CCCO[C@H]1[C@H](O)[C@@H](N)[C@@H](O[C@H]2[C@H](O[C@@H]3O[C@H](CO)[C@@H](O[C@H]4O[C@@H](CN)[C@@H](O)[C@H](O)[C@H]4N)[C@H]3O)[C@@H](O)[C@H](N)C[C@@H]2N)O[C@@H]1CO  cytotoxicity (NIH 3T3; alamarBlue; concentration not given): not toxic
CC(C)(O)c1cc2c(ccc3c(=O)cc(-c4ccccc4)oc32)o1  viability (differentiated SH-SY5Y; MTT; 1 µM; baseline: control): 98.9 ± 4.9%
N=C(N)NCCC[C@@H]1NC(=O)[C@H](Cc2csc3ccccc23)NC(=O)[C@@H](Cc2ccccc2)NC(=O)[C@H](Cc2ccccc2)NC(=O)[C@H](CCC(=O)NCCOCCOCC(=O)N[C@@H](CCCCNC(=O)c2ccc3c(c2)C(=O)OC32c3ccc4cc(O)ccc4c3Oc3c2ccc2cc(O)ccc32)C(N)=O)NC(=O)[C@@H](CCCNC(=N)N)NC(=O)[C@H](CCCNC(=N)N)NC(=O)[C@@H](CCCNC(=N)N)NC1=O  cytosolic entry (HeLa; cell penetration, flow cytometry; 5 µM, 2 h, 37 °C, 10% FBS; baseline: CPP12): 375 ± 48%
CC[C@H](C)[C@H](NC(=O)[C@@H](NC(=O)[C@H](CCCNC(=N)N)NC(=O)[C@H](CO)NC(=O)[C@H](CCCCN)NC(=O)[C@H](CC(C)C)NC(=O)[C@H](C)NC(=O)[C@H](CC(=O)O)NC(=O)[C@@H]1CCCN1C(=O)[C@H](CCC(N)=O)NC(=O)[C@@H]1CCCN1C(=O)[C@@H]1CCCN1C(=O)[C@H](CCCNC(=N)N)NC(=O)[C@H](CCCNC(=N)N)NC(=O)[C@H](CCCNC(=N)N)NC(=O)[C@H](CCC(N)=O)NC(=O)[C@H](CCCNC(=N)N)NC(=O)[C@H](CCCNC(=N)N)NC(=O)[C@H](CCCCN)NC(=O)[C@H](CCCCN)NC(=O)[C@H](CCCNC(=N)N)NC(=O)CN)[C@@H](C)O)C(=O)N[C@@H](CCCNC(=N)N)C(=O)O  cytotoxic concentration (HT-22): > 100 µM
COC1(c2ccccc2)CC(=O)c2c(cc3c(c2O)C=CC(C)(C)O3)O1 (centres unmarked)  viability (differentiated SH-SY5Y; MTT; 1 µM; baseline: control): 99.9 ± 4.6%
CC(=O)N(O)CCCP(=O)(O)O  mean mutant frequency (mouse lymphoma L5178Y TK+/- 3.7.2C; TK locus mutation; 25 µg/mL, 4 h, without S9; baseline: negative control): 128%
C(#Cc1cncc(OC[C@@H]2CCN2)c1)c1ccccc1  Papp B to A (Caco-2; Caco-2 permeability; 100 µM, 2 h, pH 7.4, added: verapamil 100 µM): 20.7 ± 0.02 ×10⁻⁶ cm/s
COc1c(C(=O)/C=C/c2ccccc2)ccc2occc12  viability (differentiated SH-SY5Y; MTT; 1 µM; baseline: control): 105 ± 3.5%
CCCCn1cc(C(=O)O)c(=O)c2cc(F)c(Nc3ccccc3Cl)c([N+](=O)[O-])c21  IC50 (T47D; cell growth, SRB; 72 h): 18.5 ± 0.59 µg/mL
COc1c2c(cc3oc(-c4ccccc4)cc(=O)c13)OC(C)(C)C=C2  viability (differentiated SH-SY5Y; MTT; 1 µM; baseline: control): 97.1 ± 1.2%
CC1CN1c1cc(O)c2nc(N)sc2c1 (centres unmarked)  toxicity (normal CD34+ bone marrow cells; colony formation; up to 12 µM, 10 days): not toxic
CC[C@H](C)[C@H](NC(=O)[C@H](CCCCN)NC(=O)[C@H](CCCCN)NC(=O)[C@H](Cc1ccccc1)NC(=O)[C@H](CC(C)C)NC(=O)[C@H](CCCCN)NC(=O)[C@H](Cc1c[nH]c2ccccc12)NC(=O)[C@@H](CCCCN)NC(C)=O)C(=O)NCC(=O)N[C@@H](C)C(=O)N[C@H](C(=O)N[C@@H](CC(C)C)C(=O)N[C@H](CCCCN)C(=O)N[C@H](C(=O)N[C@@H](CC(C)C)C(N)=O)C(C)C)C(C)C  LD50 (RAW264.7; cell viability, MTT; 1 h, 37 °C): 5.4 µM
CCCCn1cc(C(=O)O)c(=O)c2cc(F)c(Nc3cccc(Cl)c3)c([N+](=O)[O-])c21  IC50 (K562; cell growth or viability, SRB): 350 µM
COc1cc2c(c3oc(-c4ccccc4)cc(=O)c13)C=CC(C)(C)O2  viability (differentiated SH-SY5Y; MTT; 0.1 µM; baseline: control): 102 ± 2.6%
CC(=O)N[C@@H](CO)C(=O)N[C@@H](CC(=O)O)C(=O)N[C@@H](CCCCNC(=O)CCCC[C@@H]1SC[C@@H]2NC(=O)N[C@@H]21)C(=O)N1CCC[C@H]1C(=O)O  cellular uptake (A549; flow cytometry; 40 µg/mL, 60 min, 37 °C; baseline: cells): 65.1 ± 2.3%
COC(=O)C1CN1S(=O)(=O)c1ccccc1C (centres unmarked)  IC50 (Balb/c 3T3 fibroblasts; cytotoxicity, neutral red uptake; DMEM with 5% FBS; 24 h): 380 ± 10 µM
CC[C@H](C)[C@H](NC(=O)[C@H](CO)NC(=O)[C@H](CO)NC(=O)[C@H](CC(C)C)NC(=O)[C@H](CCCCN)NC(=O)[C@H](CCCNC(=N)N)NC(=O)[C@H](CCCNC(=N)N)NC(=O)[C@H](CCCNC(=N)N)NC(=O)[C@H](CCC(N)=O)NC(=O)[C@H](CCCNC(=N)N)NC(=O)[C@H](CCCNC(=N)N)NC(=O)[C@H](CCCCN)NC(=O)[C@H](CCCCN)NC(=O)[C@H](CCCNC(=N)N)NC(=O)CNC(=O)[C@H](Cc1ccc(O)cc1)NC(=O)c1ccc2c(c1)C(=O)OC21c2ccc(N(C)C)cc2Oc2cc(N(C)C)ccc21)C(=O)N[C@@H](CCC(=O)O)C(=O)N[C@@H](C)C(=O)N[C@@H](CC(=O)O)C(=O)N[C@@H](C)C(=O)O  cellular uptake (mouse primary neurons; confocal microscopy; 1, 5 and 10 µM, 60 min, 37 °C): increased
COC(=O)C1CN1S(=O)(=O)c1ccc(C)cc1F (centres unmarked)  IC50 (Balb/c 3T3 fibroblasts; cytotoxicity, neutral red uptake; DMEM with 5% FBS; 24 h): 866 ± 173 µM
COC(=O)[C@H](CO)NC(=O)[C@H](CCCCN(CC(C)C)C1CC2CCC1C2)NC(=O)[C@H](CCCN1CCOCC1)NC(=O)[C@H](C(C)C)N(C)C(=O)[C@H](Cc1ccccc1)NC(=O)c1ccc(C(C)(C)C)cc1 (some centres unmarked)  DC50 (mouse embryonic stem cells; cytotoxicity, CellTiter-Glo; 48 h): 4.4 ± 0.41 µM
Cc1cccc(F)c1NC(=O)CN1CCCC2=CC3CC(CN4CCCCC34)C21 (centres unmarked)  CC50 (Huh-7; cytotoxicity): > 267 µM
CCCCn1cc(C(=O)O)c(=O)c2cc(F)c(Nc3ccccc3Cl)c(N)c21  IC50 (T47D; cell growth or viability, SRB): 10 µM and 10.1 µM
NC(=S)N/N=C/c1ccc(OCc2cccc(F)c2)cc1  cytotoxicity (IMR-32; MTT; concentration not given): not toxic
C=C1C(=O)O[C@H]2C[C@H](C)C(/C=C/C(C)=O)=CC[C@H]12  minimum cytotoxic concentration (MDCK; cell morphology): 4 µM
COc1cc(C2C3C4=[N+](CCc5cc(O)c(OC)cc54)C(c4c3ccc(OC)c4OC)C2C(=O)[O-])ccc1O (single isomer, unassigned; (+))  maximum nontoxic concentration (HEK293T-ACE2): 100 µM
COCC12C(=O)NC3C4(C(OC)CC1O)C1CC5(O)C(OC)C(O)C(OC(C)=O)(C1C5OC(=O)c1ccccc1)C3(O)C(OC)C24 (centres unmarked)  cytotoxicity (PC-12 transfected with EGFP-MK5; 20 µM): not toxic
COC(=O)C1CN1S(=O)(=O)c1cccc(C(F)(F)F)c1 (centres unmarked)  IC50 (Balb/c 3T3 fibroblasts; cytotoxicity, neutral red uptake; DMEM with 5% FBS; 24 h): 450 ± 20 µM
O=C1CCc2ccc(OCCCCCCSC(=S)N3CCCCC3)cc2N1  cytotoxicity (HT-22; CCK-8; up to 12.5 µM, 24 h): not toxic
C[C@@H]1NC(=O)[C@H](CCC(=O)O)NC(=O)[C@@H]2CSSC[C@H](NC(=O)[C@H](CCCCN)NC(=O)CNC1=O)C(=O)N[C@@H](CO)C(=O)N[C@H]1CSSC[C@H](NC(=O)[C@H](CC(=O)O)NC(=O)[C@@H]3CSSC[C@H](NC(=O)[C@H](Cc4ccc(O)cc4)NC1=O)C(=O)N[C@@H](CC(=O)O)C(=O)N[C@@H](C)C(=O)NCC(=O)N[C@@H](CC(=O)O)C(=O)N3)C(=O)N[C@@H](CCCCN)C(=O)N2  viability (OVCAR-3; CellTiter-Glo; 200 µM): ~65%

Some of these lines once more:
CC(C)(O)c1cc2c(ccc3c(=O)cc(-c4ccccc4)oc32)o1  viability (differentiated SH-SY5Y; MTT; 1 µM; baseline: control): 98.9 ± 4.9%
N=C(N)NCCC[C@@H]1NC(=O)[C@H](Cc2csc3ccccc23)NC(=O)[C@@H](Cc2ccccc2)NC(=O)[C@H](Cc2ccccc2)NC(=O)[C@H](CCC(=O)NCCOCCOCC(=O)N[C@@H](CCCCNC(=O)c2ccc3c(c2)C(=O)OC32c3ccc4cc(O)ccc4c3Oc3c2ccc2cc(O)ccc32)C(N)=O)NC(=O)[C@@H](CCCNC(=N)N)NC(=O)[C@H](CCCNC(=N)N)NC(=O)[C@@H](CCCNC(=N)N)NC1=O  cytosolic entry (HeLa; cell penetration, flow cytometry; 5 µM, 2 h, 37 °C, 10% FBS; baseline: CPP12): 375 ± 48%
CC[C@H](C)[C@H](NC(=O)[C@@H](NC(=O)[C@H](CCCNC(=N)N)NC(=O)[C@H](CO)NC(=O)[C@H](CCCCN)NC(=O)[C@H](CC(C)C)NC(=O)[C@H](C)NC(=O)[C@H](CC(=O)O)NC(=O)[C@@H]1CCCN1C(=O)[C@H](CCC(N)=O)NC(=O)[C@@H]1CCCN1C(=O)[C@@H]1CCCN1C(=O)[C@H](CCCNC(=N)N)NC(=O)[C@H](CCCNC(=N)N)NC(=O)[C@H](CCCNC(=N)N)NC(=O)[C@H](CCC(N)=O)NC(=O)[C@H](CCCNC(=N)N)NC(=O)[C@H](CCCNC(=N)N)NC(=O)[C@H](CCCCN)NC(=O)[C@H](CCCCN)NC(=O)[C@H](CCCNC(=N)N)NC(=O)CN)[C@@H](C)O)C(=O)N[C@@H](CCCNC(=N)N)C(=O)O  cytotoxic concentration (HT-22): > 100 µM
COC1(c2ccccc2)CC(=O)c2c(cc3c(c2O)C=CC(C)(C)O3)O1 (centres unmarked)  viability (differentiated SH-SY5Y; MTT; 1 µM; baseline: control): 99.9 ± 4.6%
CC(=O)N(O)CCCP(=O)(O)O  mean mutant frequency (mouse lymphoma L5178Y TK+/- 3.7.2C; TK locus mutation; 25 µg/mL, 4 h, without S9; baseline: negative control): 128%
